Measured values collected from several papers.
Compare with care: the assays were run in different laboratories. Values joined by “and” are separate records of one study, mostly repeats; a detail may differ. Numbers after ± are the reported error.
Organism: HIV-1

Cc1cn(CC(=O)N[C@@H](C(=O)N(C)c2ccccc2)c2ccccc2)c(=O)[nH]c1=O  EC50 (viral replication; TZM-GFP, NL4-3): > 20 µM
Cc1cc(C)cc(S(=O)(=O)c2c(C(=O)NCCCNS(=O)(=O)c3ccc(Br)cc3)[nH]c3ccc(Cl)cc23)c1  EC50 (viral replication; MT-4, IIIB): 0.14 ± 0.013 µM
O=C(O)Cn1c(=O)ccn(CCCCCCOc2ccc(Br)cc2)c1=O  EC50 (viral replication, measured: p24gag; MT4, Lai.04; 3 days): > 100 µM
Cc1cc(C)cc(S(=O)(=O)c2c(C(=O)NCCCNS(=O)(=O)c3ccc(C#N)cc3)[nH]c3ccc(Cl)cc23)c1  EC50 (viral replication; MT-4, IIIB): 0.031 ± 0.0034 µM
[N-]=[N+]=N[C@H]1C[C@H](n2ccc(=O)[nH]c2=O)O[C@@H]1CO  EC50 (viral replication; human PBM cells, LAI): 0.2 µM
Cc1cn([C@H]2C[C@H](N=[N+]=[N-])[C@@H](CO)O2)c(=O)[nH]c1=O  EC50 (viral replication, measured: reverse transcriptase activity; human PBM cells, LAI; 144 h): 0.0054 µM
O=C(O)c1ccccc1-n1c(-c2ccccc2)nc2c(Br)cc(Br)cc2c1=O  EC50 (cytopathic effect; MT-4, IIIB; 5 days): > 83.2 mg/L
Cc1cc(C)cc(S(=O)(=O)c2c(C(=O)NCCCNS(=O)(=O)c3cccc(F)c3)[nH]c3ccc(Cl)cc23)c1  EC50 (viral replication; MT-4, IIIB): 0.035 ± 0.012 µM
Cc1cn([C@H]2C[C@H](N=[N+]=[N-])[C@@H](COC(=O)Cn3c(=O)ccn(CCCCCOc4ccc(Br)cc4)c3=O)O2)c(=O)[nH]c1=O  EC50 (viral replication, measured: p24gag; MT4, Lai.04; 3 days): 0.61 ± 0.31 µM
O=C(O)c1cc(Br)ccc1-n1c(-c2ccccc2)nc2ccc(Br)cc2c1=O  EC50 (cytopathic effect; MT-4, IIIB; 5 days): > 60.4 mg/L
c1cc(CNCCCNC2CCCCC2)cc(CNc2nc(N3CCNCC3)nc3[nH]cnc23)c1  EC50 (viral replication, luciferase reporter; TZM-bl, IIIB): ~0.0005 µM
C=C(C)[C@@H]1CC[C@]2(NCCN3CCS(=O)(=O)CC3)CC[C@]3(C)[C@H](CC[C@@H]4[C@@]5(C)CC=C(C6=CC[C@@](CF)(C(=O)O)CC6)C(C)(C)[C@@H]5CC[C@]43C)[C@@H]12  EC50 (viral load; human, HIV-1 patients, plasma; 192 h): 0.17 mg/L
Cc1cn([C@H]2C[C@H](N=[N+]=[N-])[C@@H](COC(=O)Cn3c(=O)ccn(CCCCCCCCOc4ccc(Br)cc4)c3=O)O2)c(=O)[nH]c1=O  EC50 (viral replication, measured: p24gag; MT4, Lai.04; 3 days): 0.23 ± 0.11 µM
O=c1ccn([C@H]2C=C[C@@H](CO)O2)c(=O)[nH]1  EC50 (viral replication, supernatant RT activity; human PBM cells, LAI; 6 days): > 100 µM
Cc1cc(O)c(=O)c(O)c2c1CC(C(C)(O)CO)CC2 (centres unmarked)  EC50 (cytopathic effect; CEM-SS, RF): > 50 µM
Cc1cn(CC(=O)N[C@@H](Cc2ccccc2)C(=O)N(C)c2ccc(Cl)cc2)c(=O)[nH]c1=O  EC50 (viral replication; TZM-GFP, NL4-3): 1.7 ± 0.2 µM
Cc1cc(O)c(=O)c(O)c2c1C[C@@H](C(C)(O)CNCc1ccccc1F)CC2 (mixture of isomers)  EC50 (cytopathic effect; CEM-SS, RF): > 50 µM
COc1ccc2nc(NCc3ccc(CNCCCNC4CCCCCC4)cc3)nc(NC3CCNCC3)c2c1  EC50 (viral replication, luciferase reporter; TZM-bl, IIIB): 0.0426 ± 0.007 µM
Cc1cc(C=C2C(=O)C=CC2=O)cc(C)c1O  EC50 (cytopathic effect; C8166, IIIB; 3 d): 15.2 µM
Cc1cn([C@H]2C[C@H](N=[N+]=[N-])[C@@H](CO)O2)c(=O)[nH]c1=O  EC50 (viral replication; PBMC): 0.0044 µM
Cc1ccc(S(=O)(=O)NCCCCNC(=O)c2[nH]c3ccc(Cl)cc3c2S(=O)(=O)c2cc(C)cc(C)c2)cc1  EC50 (viral replication; MT-4, IIIB): 0.032 ± 0.012 µM
CN(C(=O)[C@H](Cc1ccccc1)NC(=O)c1c[nH]c(=O)[nH]c1=O)c1ccccc1  EC50 (viral replication; TZM-GFP, NL4-3): > 20 µM
Cc1nn(C(C)c2nnc(Nc3ccn(Cc4ccccc4)n3)s2)c(C)c1Br (centres unmarked)  EC50 (viral replication, luciferase reporter; TZM-bl, NL4-3): 0.06 ± 0.01 µM
COc1ccc(S(=O)(=O)NCCNC(=O)c2[nH]c3ccc(Cl)cc3c2S(=O)(=O)c2cc(C)cc(C)c2)cc1  EC50 (viral replication; MT-4, IIIB): 0.085 ± 0.043 µM
Cc1[nH]c2ccccc2c1CC(=O)N[C@@H](Cc1ccccc1)C(=O)N(C)c1ccccc1  EC50 (HIV-1-induced cytopathicity, MTT; MT-4, wild type; 50% protection): 0.79 ± 0.09 µM
COC(=O)[C@H](C)NP(=O)(OCCOCn1cnc2c(=O)[nH]c(N)nc21)Oc1cccc2ccccc12 (some centres unmarked)  EC50 (viral replication, measured: p24 antigen; LAI.04, human tonsil tissue ex vivo; 12 d): 0.14 ± 0.03 µM
O=C(O)c1cc(Br)ccc1-n1c(-c2ccccc2)nc2ccccc2c1=O  EC50 (cytopathic effect; MT-4, IIIB; 5 days): > 88.2 mg/L
COc1ccc2nc(NCc3ccc(CNCCCNC4CCCCC4)cc3)nc(NC3CCNCC3)c2c1  EC50 (viral replication, luciferase reporter; TZM-bl, IIIB): 0.0474 ± 0.0183 µM
COc1cc(NC(C)CCCNC(=O)c2ccccc2N)c2ncccc2c1 (centres unmarked)  EC50 (cytopathic effect; MT4, NL4.3; 5 days): 9.3 ± 0.5 µM
Nc1ccn([C@@H]2O[C@H](CO)[C@@H](O)[C@@H]2O)c(=O)n1  EC50 (viral replication, measured: reverse transcriptase activity; human PBM cells, LAI; 144 h): 4.9 µM
Cc1cc(C)cc(S(=O)(=O)c2c(C(=O)NCCCCNS(=O)(=O)c3ccc([N+](=O)[O-])cc3)[nH]c3ccc(Cl)cc23)c1  EC50 (viral replication; MT-4, IIIB): 0.028 ± 0.0049 µM
COc1cc(NC(C)CCCNC(=O)c2cc(Br)ccc2N)c2ncccc2c1 (centres unmarked)  EC50 (cytopathic effect; MT4, NL4.3; 5 days): 14.1 ± 0.6 µM
O=C1CSC(c2c(Cl)cccc2Cl)N1CCC12CC3CC(CC(C3)C1)C2 (centres unmarked)  EC50 (viral cytopathicity; CEM, IIIB; 4 days): 2 µM
Cc1cc(C#N)cc(C)c1Oc1cc(Nc2ccc(C#N)cc2)c(N)cc1N  EC50 (viral replication, p24 ELISA; MT2, IIIB wild type): 0.211 ± 0.053 µM
Nc1ncnc2c1ncn2CCOCP(=O)(O)O  EC50 (giant cell formation; CEM, IIIB; 96 h): 7.4 ± 1.7 µM
COc1ccc2c(NC3CCNCC3)nc(NCc3ccc(CNCCCNC4CCCCCC4)cc3)nc2c1  EC50 (viral replication, luciferase reporter; TZM-bl, IIIB): 0.0454 ± 0.0084 µM
Cc1cc(C)cc(S(=O)(=O)c2c(C(=O)NCCCCNS(=O)(=O)c3ccc(Cl)cc3)[nH]c3ccc(Cl)cc23)c1  EC50 (viral replication; MT-4, IIIB): 0.0086 ± 0.00082 µM
COc1nc(Nc2ccc(C#N)c(OCC=C(C)C)c2)nc(OCCOCCOc2nc(Nc3ccc(C#N)c(OCC=C(C)C)c3)nc(OC)n2)n1  EC50 (protection from viral cytopathicity, MTT; MT-2, IIIB): > 6 µM
c1nc2c(NCc3ccc(CNCCCNC4CCCCC4)cc3)nc(N3CCC(C4CCNCC4)CC3)nc2[nH]1  EC50 (viral replication, luciferase reporter; TZM-bl, IIIB): 0.0843 ± 0.0158 µM
Cc1cc(C#N)cc(C)c1Oc1cc(Nc2ccc(C#N)cc2)c(N)cc1[N+](=O)[O-]  EC50 (viral replication, p24 ELISA; MT2, IIIB wild type): 0.032 ± 0.005 µM
COc1nc(NCCNc2nc(Nc3ccc(C#N)c(OCC=C(C)C)c3)nc(OC)n2)nc(Nc2ccc(C#N)c(OCC=C(C)C)c2)n1  EC50 (protection from viral cytopathicity, MTT; MT-2, IIIB): > 6 µM
O=C(O)c1cc(Br)ccc1-n1c(-c2ccccc2)nc2c(Br)cc(Br)cc2c1=O  EC50 (cytopathic effect; MT-4, IIIB; 5 days): > 64.2 mg/L
COc1ccc2c(NC3CCNCC3)nc(NCc3ccc(CNCCCNC4CCCCC4)cc3)nc2c1  EC50 (viral replication, luciferase reporter; TZM-bl, IIIB): 0.0086 ± 0.0053 µM
Nc1ccn([C@@H]2CS[C@H](COC(=O)Cn3c(=O)ccn(CCCCCCOc4ccc(Br)cc4)c3=O)O2)c(=O)n1  EC50 (viral replication, measured: p24gag; MT4, Lai.04; 3 days): 2 µM
O=c1[nH]c(=O)n([C@H]2C[C@H](O)[C@@H](CO)O2)cc1I  EC50 (viral replication, supernatant RT activity; human PBM cells, LAI; 6 days): 86.5 µM and 65.7 µM
Cn1cnc2c(NCc3ccc(CNCCCNC4CCCCC4)cc3)nc(N3CCNCC3)nc21  EC50 (viral replication, luciferase reporter; TZM-bl, IIIB): 0.0034 ± 0.0002 µM
Cc1cc(C#N)cc(C)c1Oc1nc(Nc2ccc(C#N)cc2)nc(N)c1Br  EC50 (viral replication; MT-4, IIIB): 0.0051 ± 0.0092 µM

Repeated from above:
Cc1cc(C#N)cc(C)c1Oc1cc(Nc2ccc(C#N)cc2)c(N)cc1N  EC50 (viral replication, p24 ELISA; MT2, IIIB wild type): 0.211 ± 0.053 µM
COc1nc(Nc2ccc(C#N)c(OCC=C(C)C)c2)nc(OCCOCCOc2nc(Nc3ccc(C#N)c(OCC=C(C)C)c3)nc(OC)n2)n1  EC50 (protection from viral cytopathicity, MTT; MT-2, IIIB): > 6 µM
O=C(O)c1ccccc1-n1c(-c2ccccc2)nc2c(Br)cc(Br)cc2c1=O  EC50 (cytopathic effect; MT-4, IIIB; 5 days): > 83.2 mg/L
O=C(O)c1cc(Br)ccc1-n1c(-c2ccccc2)nc2ccccc2c1=O  EC50 (cytopathic effect; MT-4, IIIB; 5 days): > 88.2 mg/L
O=C(O)Cn1c(=O)ccn(CCCCCCOc2ccc(Br)cc2)c1=O  EC50 (viral replication, measured: p24gag; MT4, Lai.04; 3 days): > 100 µM
